Earlier results as cited in several papers.
Compare with care: the assays were run in different laboratories. ± gives the spread as reported.
Chain of UniProt P28472 (whole entry, unmodified, looked up): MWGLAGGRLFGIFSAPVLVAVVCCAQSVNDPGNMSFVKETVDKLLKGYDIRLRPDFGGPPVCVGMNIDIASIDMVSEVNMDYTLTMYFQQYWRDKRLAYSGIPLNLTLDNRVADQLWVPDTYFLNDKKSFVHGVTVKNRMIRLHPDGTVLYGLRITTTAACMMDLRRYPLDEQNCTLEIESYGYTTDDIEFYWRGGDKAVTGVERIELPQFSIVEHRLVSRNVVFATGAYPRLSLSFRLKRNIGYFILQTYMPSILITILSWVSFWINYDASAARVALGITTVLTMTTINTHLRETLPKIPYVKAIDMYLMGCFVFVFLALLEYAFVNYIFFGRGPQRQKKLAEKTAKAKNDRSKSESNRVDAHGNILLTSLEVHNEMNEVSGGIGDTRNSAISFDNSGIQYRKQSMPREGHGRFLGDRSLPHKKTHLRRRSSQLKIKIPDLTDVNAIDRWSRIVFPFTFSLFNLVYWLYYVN
Chain of UniProt P06241 (whole entry, unmodified, looked up): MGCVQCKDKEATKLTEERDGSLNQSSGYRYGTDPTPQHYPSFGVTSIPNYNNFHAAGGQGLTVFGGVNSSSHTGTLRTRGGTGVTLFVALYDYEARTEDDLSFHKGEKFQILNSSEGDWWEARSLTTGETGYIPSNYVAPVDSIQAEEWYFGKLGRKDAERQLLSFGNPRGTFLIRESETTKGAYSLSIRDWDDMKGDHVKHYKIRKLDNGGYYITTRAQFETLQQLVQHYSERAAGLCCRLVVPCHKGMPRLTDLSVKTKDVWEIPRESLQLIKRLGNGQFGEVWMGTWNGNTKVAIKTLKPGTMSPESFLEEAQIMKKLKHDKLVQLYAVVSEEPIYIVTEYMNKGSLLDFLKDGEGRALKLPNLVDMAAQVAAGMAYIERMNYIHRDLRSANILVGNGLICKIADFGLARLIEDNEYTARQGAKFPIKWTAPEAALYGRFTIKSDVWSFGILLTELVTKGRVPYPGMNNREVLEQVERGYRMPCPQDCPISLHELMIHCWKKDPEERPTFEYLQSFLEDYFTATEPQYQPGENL
Chain of UniProt P04191 (whole entry, looked up): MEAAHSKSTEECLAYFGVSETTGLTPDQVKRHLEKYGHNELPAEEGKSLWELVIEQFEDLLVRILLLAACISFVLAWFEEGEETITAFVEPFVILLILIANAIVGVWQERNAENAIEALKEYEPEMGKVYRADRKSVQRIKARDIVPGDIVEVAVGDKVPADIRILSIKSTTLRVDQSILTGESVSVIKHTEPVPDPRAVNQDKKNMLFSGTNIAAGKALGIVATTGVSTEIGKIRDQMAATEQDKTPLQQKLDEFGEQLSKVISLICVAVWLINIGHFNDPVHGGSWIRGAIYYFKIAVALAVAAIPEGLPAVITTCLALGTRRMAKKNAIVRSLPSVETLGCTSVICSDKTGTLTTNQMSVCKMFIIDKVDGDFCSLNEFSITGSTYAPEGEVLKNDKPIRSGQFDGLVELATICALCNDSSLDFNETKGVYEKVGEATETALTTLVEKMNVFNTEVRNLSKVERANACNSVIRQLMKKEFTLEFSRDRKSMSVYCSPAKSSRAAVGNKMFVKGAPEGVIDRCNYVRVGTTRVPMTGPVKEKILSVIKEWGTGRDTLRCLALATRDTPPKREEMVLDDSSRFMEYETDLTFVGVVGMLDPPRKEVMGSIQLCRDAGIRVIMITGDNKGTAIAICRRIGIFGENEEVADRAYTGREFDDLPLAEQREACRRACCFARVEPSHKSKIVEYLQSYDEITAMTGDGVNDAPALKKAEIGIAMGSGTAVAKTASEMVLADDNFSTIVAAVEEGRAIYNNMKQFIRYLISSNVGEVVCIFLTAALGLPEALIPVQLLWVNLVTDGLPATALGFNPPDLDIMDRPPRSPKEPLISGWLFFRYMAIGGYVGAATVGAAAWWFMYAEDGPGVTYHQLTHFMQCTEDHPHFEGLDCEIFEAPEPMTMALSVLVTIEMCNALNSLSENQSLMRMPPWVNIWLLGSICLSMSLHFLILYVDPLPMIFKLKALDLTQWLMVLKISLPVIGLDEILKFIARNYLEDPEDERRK
Chain of UniProt P14867 (whole entry, unmodified, looked up): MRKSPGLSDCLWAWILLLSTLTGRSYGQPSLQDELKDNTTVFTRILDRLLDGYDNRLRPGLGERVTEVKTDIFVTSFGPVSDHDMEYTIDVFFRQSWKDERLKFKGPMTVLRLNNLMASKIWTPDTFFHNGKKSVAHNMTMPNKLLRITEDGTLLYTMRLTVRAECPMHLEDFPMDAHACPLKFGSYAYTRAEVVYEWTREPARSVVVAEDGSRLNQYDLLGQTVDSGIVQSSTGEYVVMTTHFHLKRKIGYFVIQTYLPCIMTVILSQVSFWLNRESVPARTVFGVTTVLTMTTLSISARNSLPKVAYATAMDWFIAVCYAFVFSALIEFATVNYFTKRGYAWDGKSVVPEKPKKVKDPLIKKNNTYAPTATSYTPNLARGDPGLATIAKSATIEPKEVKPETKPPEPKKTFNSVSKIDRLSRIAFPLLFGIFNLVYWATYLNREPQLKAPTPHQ

Substance	tested on	assay	system	conditions	how to read	measurement	result
Ac-APPIPPPRRKR-NH2 (N-acetyl, C-amide)	Tyrosine-protein kinase Fyn, SH3 domain (FYN, Homo sapiens, UniProt P06241)	binding	peptide			entropic term −TΔS	1.2 kcal/mol
pegcetacoplan			cynomolgus monkey	daily, 7 days, non-GLP study		NOEL	> 20 mg/kg/day
cyclopropyl methoxycarbonyl metomidate	GABA-A receptor alpha-1/beta-3, with gamma-2 subunit (GABRA1/GABRB3, Homo sapiens, UniProt P14867+P28472, L291T)	ion current, agonist	Xenopus oocytes	direct activation	baseline: 100 µM GABA peak current	EC50	3.8 µM
phospholamban	ATP2A1 (Oryctolagus cuniculus, UniProt P04191)	calcium affinity				KCa	0.88 ± 0.03 µM
calcein AM	MDA-MB-231 cells	viscosity probe				hydrodynamic radius	0.65 nm
enfortumab vedotin			rat			Vdss	0.04 to 0.1 L/kg

Some of these lines once more:
Substance	tested on	assay	system	conditions	how to read	measurement	result
enfortumab vedotin			rat			Vdss	0.04 to 0.1 L/kg
